Published values pooled from the literature.
Target: MAP kinase-interacting serine/threonine-protein kinase 2 (MKNK2, Homo sapiens, UniProt Q9HBH9)

| SMILES | test | setting | how to read | quantity | value |
| --- | --- | --- | --- | --- | --- |
| CCN1CCN(Cc2ccc(C(=O)Nc3ccc(C)c(NCc4cnc5[nH]ccc5c4OC)c3)cc2C(F)(F)F)CC1 | binding, competition with immobilised ligand | 1 µM |  | remaining binding | 44% |
| CNC(=O)C[C@H](Cc1ccc(C#N)cc1)NC(=O)c1cc(-c2ccc(CN[C@H](C)c3ccc(C)cc3)o2)ccc1Cl | enzyme activity, inhibitor | 1 µM |  | activity vs control | 103% |
| C=CC(=O)Nc1cccc(-c2cnc3[nH]cc(C(=O)NC(C)(C)C)c3n2)c1 | enzyme activity, inhibitor | 0.1 µM |  | inhibition | 5% |
| COc1c(Cl)cccc1Nc1c(-c2ccncc2C#C[C@@]2(C)CCCN2C(=O)/C=C/CN(C)C)[nH]c2c1C(=O)NCC2 | binding, competition with immobilised ligand | 3 µM |  | remaining binding | 71% |
| O=C(O)CCC(=O)c1cccc(NS(=O)(=O)c2c[nH]c3ncccc23)c1 | kinase activity, radiometric | 10 µM |  | remaining activity | 111% |
| NC(=O)[C@@H](O)C[C@H]1CCc2sc3ncnc(O[C@H]4CC[C@H](N5CCOCC5)CC4)c3c21 | enzyme activity, inhibitor | 10 µM |  | inhibition | 4% |
| Nc1ncc(-c2cc(-c3cnn(CC(F)(F)F)c3)ncc2F)nc1C(=O)NC1CNCC(F)C1 (stereo not drawn) | enzyme activity | 1 µM | relative to: DMSO control | remaining activity | 20.8% |
| O=C(Cc1ccc(OCc2ccccc2)cc1)NC1(C(=O)O)CCN(C(=O)c2ccc(-c3cccc(Cl)c3)cc2)CC1 | enzyme activity, inhibitor | 10 µM |  | activity vs control | 101% |
| C=CC(=O)N1Cc2nc(-c3cc(-c4cc(Cl)cnc4Cl)c(F)cc3F)n(-c3ccncn3)c2C1 | cell-free assay, inhibitor | 1 µM |  | inhibition | 6.7% |
| CC(C)=CC1OC(C)(C)C2C=C3C(=O)C(Cl)=CC(O)C3C3C(O)C4OC4C(=O)C132 (stereo not drawn) | cell-free assay, competition with immobilised ligand | 10 µM |  | remaining binding | 82% |
| Cc1cccc(-c2ccc3nc(NC(=O)C4CCCCC4)nn3c2)c1 | enzyme activity, Dundee kinase panel | 10 µM |  | remaining activity | 67% |
| COc1cc(Nc2nc(C)cc(-c3cnn4nc(OC)ccc34)n2)cc(C(F)(F)F)c1 | inhibitor | 1 µM | relative to: control | remaining activity | 78% |
| CC(=O)Nc1ccc(-c2ccnc(NCC3CCC3)n2)cc1 | cell-free assay, competition with immobilised ligand | 10 µM |  | remaining binding | 8% |
| CC(=O)N1c2ccc(-c3ccc(CNC(=O)c4cn5cc(-c6cnc(N)nc6)nc(N6CCOCC6)c5n4)cc3)cc2CC[C@@H]1C | KINOMEscan | 10 µM |  | remaining binding | 89% |
| CCn1cc(C(=O)O)c(=O)c2c(N)c(F)c(NC3CCCCC3)cc21 | kinase activity | 0.1 µM, added: ATP at Km |  | inhibition | 2.7% |
| Cc1ccc(C)c(-c2ccc3nc(NC(=O)C4CCCCC4)nn3c2)c1 | enzyme activity, Dundee kinase panel | 10 µM |  | remaining activity | 50% |
| O=C=[N][Ru-4]123([n]4c5ccc(O)cc5c5c6c(c7cc(F)c[n+]1c7c54)C(=O)NC6=O)[S+]1CC[S+]2CC[S+]3CC1 (stereo not drawn) | enzyme activity | 100 nM, human enzyme, added: 10 µM ATP | relative to: untreated | remaining activity | 95% |
| COc1ccc(NC(=O)Nc2ccc3c(c2)C(=O)N(C(C)CO)CC(C)C(CN(C)Cc2ccc4c(c2)OCO4)O3)cc1 (stereo not drawn) | kinase activity, KinaseProfiler | 0.03 µM, species human | relative to: control | remaining activity | 92% |
| Cc1cccc(O[C@H]2CCC[C@@H](C(C)CNCc3ccncc3)C2)c1 (relative stereo) | enzyme activity, inhibitor | 10 µM |  | inhibition | -4% |
| C=CC(=O)N1CCc2ccc(-n3c(=O)ccc4cnc5ccc(-c6cnn(C)c6)cc5c43)cc21 | KINOMEscan | 1 µM | relative to: DMSO control | remaining binding | 74% |
| CN1CCN(Cc2ccc(NC(=O)c3cccc(C#Cc4cnc(N)c5ncccc45)c3)cc2C(F)(F)F)CC1 | cell-free assay, competition with immobilised ligand | 50 nM |  | remaining binding | 8.4% |
